Measurements from different studies.
Each numbered part is a random draw from the data of one study; scales do not carry over between parts. Changes are numbered by the printed parent chain.

Block 1
Target: Ras GTPase-activating protein-binding protein 1, full length (G3BP1, Homo sapiens, UniProt Q13283)
UniProt Q13283, sequence (whole entry, looked up): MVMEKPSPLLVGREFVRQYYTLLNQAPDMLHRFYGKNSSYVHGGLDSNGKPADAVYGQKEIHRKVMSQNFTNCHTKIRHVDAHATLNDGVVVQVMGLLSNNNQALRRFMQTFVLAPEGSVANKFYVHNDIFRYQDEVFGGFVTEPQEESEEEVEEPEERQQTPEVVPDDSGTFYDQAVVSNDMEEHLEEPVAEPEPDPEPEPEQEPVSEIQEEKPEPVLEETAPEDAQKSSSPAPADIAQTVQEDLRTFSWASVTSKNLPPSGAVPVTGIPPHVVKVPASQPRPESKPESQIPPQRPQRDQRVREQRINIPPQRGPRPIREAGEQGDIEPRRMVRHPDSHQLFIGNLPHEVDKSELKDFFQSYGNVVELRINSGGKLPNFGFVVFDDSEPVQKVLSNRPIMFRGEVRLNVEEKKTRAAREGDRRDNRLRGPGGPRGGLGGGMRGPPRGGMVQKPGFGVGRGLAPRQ
Method: RNA Bind-n-Seq
Molecule type: RNA
Medium: in vitro
Concentration: 200 nM
Setting: whole 134-nt RNA, ends assumed
Together with: 150 mM KCl
Reference: input library
Direction: higher = stronger binding
All sequences stand within: GGGAGUUCUACAGUCCGACGAUC … UGGAAUUCUCGGGUGUCAAGG
`ACCAUUCAGGUGGGCAUCUUUGGGAAGUGGGGCAAGGGGGGGAUAGGGAGGGGGGUAACACUUUGGGAACAGGUGGUCCCAGGUCGUUUC` has a log2 enrichment of 0.852.
The log2 enrichment of `ACCAUGCAGGUGGGCAUCUUUGGGAAGUGGGGCAAGGGGGGGAUAGGGAGGGGGGCAACACUUUGGGAACAGGUGGUCCCAGGUCGUUUC` is reported as 1.34.
With `GAAACUACCCGUGUGUAAAAAGAAGAUUGGCUUAAAAUGGCUACUGUGAUGGGAACAGUGUCUUAGGGAGAUGCAGCUUGGACUUGAGGU` the log2 enrichment was 0.231.
`UUACACAAACCUGCAGGUGAAGACAGGCCAGCGGACCCUCAUCAACCCCAAGCCCUGUGGCCAGUUUUGCUGCUGUGAAGUGCUGGGCUG` has a log2 enrichment of -0.475.
With `CACAGACAACACGCACCCACACAGACACAGAGGGAAGGGGUUGGGAUGGGGACAGGGUGCACAGCAGGUCGGGGUAGGACCCCAGCCCCU` the log2 enrichment was 1.91.
`CUGUGCUACACAUCGUAUGUACCGAAUCGGGCCCCCCCGGGCCCCCCCGGGGCCCCCCCGGAAAGUAUUAUGUUACGCCGUUCGGAUCUG` gave a log2 enrichment of -0.563.
The log2 enrichment of `ACCAUGCAGGUGGGCAUCUUUGGGAAGUGGGGCAAGGGGGGGAUAGGGAGCGGGGUAACACUUUGGGAACAGGUGGUCCCAGGUCGUUUC` is reported as 1.27.
`CUCAAGUCCUGUGCUACACAUCGUAUGUACCGAAUCGGAAGGGGAAGGGAAGGAAAGUAUUAUGUUACGCCGUUCGGAUCUGCACUUCCA` gave a log2 enrichment of -0.0846.

Block 2
Target: RING finger protein unkempt homolog, zinc fingers 1-6, GST-SBP tag (UNK, Homo sapiens, UniProt Q9C0B0, residues 30-357)
Method: RNA Bind-n-Seq
Molecule type: RNA
Medium: in vitro
Concentration: not given
Setting: RNA with constant flanks, human and mouse sites, ends assumed
Reference: input RNA pool
Direction: higher = stronger binding
All sequences stand within: GGGAGUUCUACAGUCCGACGAUC … CAACAGAGGAUUGAGCAUCA
Residues (chain): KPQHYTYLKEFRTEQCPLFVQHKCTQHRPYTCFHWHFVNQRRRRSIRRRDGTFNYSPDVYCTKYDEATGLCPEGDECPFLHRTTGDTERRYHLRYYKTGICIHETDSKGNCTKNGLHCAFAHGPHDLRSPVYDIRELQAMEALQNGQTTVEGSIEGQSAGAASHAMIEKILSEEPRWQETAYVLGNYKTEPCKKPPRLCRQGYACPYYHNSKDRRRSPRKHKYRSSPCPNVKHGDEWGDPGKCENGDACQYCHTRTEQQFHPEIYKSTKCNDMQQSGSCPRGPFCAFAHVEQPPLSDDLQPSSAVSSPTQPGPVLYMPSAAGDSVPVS
The bound/input enrichment of `CCUGUUGGAAGAGCUGGGGUCUUGCUAUCUGAAAUAUUGCACCUACUAUGCAAACAAAUGAGCCAUAAGAAAGUGGGAGCCUUAUGGAGGGAGGCUGACCUCAGCUGGAAGGACUUUUUA` is reported as 0.0875 ratio.
`AAGAAAGGAGAGAAAAAGGAGAAGCAGCAGUCGGCAGCAGCAAGUACUGACUCCAAGCCUAUCGACGCAUCGCGUCUGGAUCUUCGAAUUGGUUGUAUUGUUACUGCCAAGAAGCACCCU` has a bound/input enrichment of 0.205 ratio.
`GAACAAGACAAUGGUGGCACCACAGAAUCUGUCAAAGAACAAGAAAUGAAGUGGACAGACUUAGCCUUACAGUACCUCCAUGAGAAUGUUCCCCCCAUUGGAAACUGACGCUUGGCUCCU` gave a bound/input enrichment of 0.194 ratio.
For `GAUCAGAGCUGAUCAACUCCUUUAGGAUUGCCUGUGGAGGAUACCUUCAGUCGAAGUUUUUUUAGCCCUCACUGAGCUACUUCCAAGUUUGGAAGUACUUAGUGACCUUGGUGAGUUUCU`, the bound/input enrichment was 9.47 ratio.
`AUAUUACUGCUGUGUAGAAACAUUAGUAGUGUUUUCAUUUUAGGUCCAAGUAAGAUGUUUUUAGUGAUAUACCUGCAGAAUGGCUCUGUCUUAAAACUGUGUAGAAAAACCCUAAUCUUU` has a bound/input enrichment of 2.36 ratio.
For `AUUAUCACAGAAGAACCUGAAAUUGGCAAUAUAGAAAAACCUGUAGAAAUUUUUCAUAUAAUUGAGCAUUUUUGUCUUGGUAGAAGACGCCUUCAUCUAUUUGGAAGAGAUAGUACAAUU`, the bound/input enrichment was 2.74 ratio.
`GACCUUCUGCAGUUCACAACGCAAGUCUCCCGACUCAUGGUGACGGAGAUCCGGAGGAGAGCUUCAAACAAAUCCACAGAGGCUGCAAGUCGGGCCAUAGUCCAGUUCCUGGAGAUCAAU` has a bound/input enrichment of 0.198 ratio.
With `UCGGGAGGUGAUAAGACUUACAGUUUCCUAACAGCAGUGCAGGGAGGAAGUUUUAUUUUGUCUUCAUCAGGAAGCCAACUAAUUCGGUUGAUACCUGAGAGCUCAGGAAAGAUUCAUCAG` the bound/input enrichment was 0.154 ratio.

Block 3
Target: CREB3, bZIP domain (human)
Method: DHFR protein complementation
Medium: yeast
Setting: single substitutions, most at no-binding floor
Reference: wild-type JUN-FOS pair
Direction: higher = stronger binding
Starting sequence: JUN, bZIP domain (human); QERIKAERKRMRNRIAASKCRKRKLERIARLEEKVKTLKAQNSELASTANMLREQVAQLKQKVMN; partner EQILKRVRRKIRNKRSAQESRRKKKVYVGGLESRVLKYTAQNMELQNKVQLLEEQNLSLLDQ
With `E32Y` the binding fitness was -1.24 natural log.
The binding fitness of `M51G` is reported as -1.48 natural log.
`T48W` gave a binding fitness of -1.54 natural log.
With `Q41T` the binding fitness was -1.4 natural log.
For `L38P`, the binding fitness was -1.53 natural log.
With `K39E` the binding fitness was -1.41 natural log.
`K34Q` gave a binding fitness of -1.47 natural log.
The binding fitness of `A29T` is reported as -1.44 natural log.

Further values, each from its own experiment
For CN(C)C(=O)C(CCN1CCC(O)(c2ccc(Cl)cc2)CC1)(c1ccccc1)c1ccccc1, the inhibition was 27.5% (Sarcocystis neurona; parasite growth; 10 µM, secondary screen).
